Results gathered from unrelated publications.
A part holds a random share of what one study measured.

Series 1 — technique: RNA Bind-n-Seq; molecule type: RNA; matrix: in vitro; tested at: 365 nM; reference: no-protein control; reading: higher = stronger binding
Target: RNA binding protein fox-1 homolog 2, RRM domain, GST-SBP tag (RBFOX2, Homo sapiens, UniProt O43251-10, residues 100-194)
Notes: natural RNA segment, single round, ends assumed
Constant ends, left off below: GGGAGUUCUACAGUCCGACGAUC … UGGAAUUCUCGGGUGCCAA
Residues (chain): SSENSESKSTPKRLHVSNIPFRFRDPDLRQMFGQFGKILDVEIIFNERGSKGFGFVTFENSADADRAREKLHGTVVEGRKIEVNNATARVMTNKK
Sequence | RBNS enrichment (R)
GGUAAAUGCUAAACUUUUGUGUCUUUUGCCUUUUUAAAGGAAUUGUUAACAUUGGAAUUGAGGGUAUGUACAGAGAAGUUGGUGUCAACACCAUUUAAAAAGUCAUAUUU | 0.419
AGGAAAGACAAAAGACUUGAAGCACCGGGUGCAUGCUGUGUGUCACAAGUGAGGUGGAGAGUUGGCUGUGGAAGGUACAGCAAUUCCUCUGGAAUUAAAUGACCGACCAA | 3.97
UACACUAGUAUUUCUUAAAGCAGAGGUGAGUUGCGGAUAAGGUGGAUAAUAUGUGACUUUAGUCUAGUCUUCUCUGAGACUUUGAGACCCUUGGCUUGGCUGGUAUAAGU | 0.776
UAGGGUUUCGAUGUGCUAUGUUCUCAUCCUACAGUUGGUUUGGUAAUGAUCUGCAAGUCCCGGAGAGCAACAGCACAGCUCUGCCUGACGCUCUCAUUAAAAUCUAUGCA | 9.99
CUUGGUGUGAUAUGGCUGACUCCCAUGUCCUUCUUUCUUGGCUGAAGCAAACCAGUUAAUCUCAGUGUAAUUUCAUUCAGCUUUUCAUGUGCUUUGUAUUCAAUCAGAAU | 0.459
GUGAGACAGCCAGGUGUCUUUCUUUUGCGGGGGGACACUUCAGACCCAUCAAUAUGGAAUUUUGGGAGCCGACCUGAGUGCAAAUCCUAAUUCUGCCCCUGUUGGUGCAG | 0.22
CCCCUGGUGGGGGAUUGGGGAUCUGUGUUUAGCCAUUUAUAUCUACUUUAGCUGUUAAAGAGGUCCAAAUGAAAAUCAGGUGAUUGUGGAACCAUGGGGACUUGGGGGUG | 0.333
UGUGCUGAGGCAUGUUCCUGCCUACCAUCCUCCUCCCUCCCCGGCUCUCCUCCCAGCAUCACACCAGCCAUGCAGCCAGCAGGUCCUCCGGAUCACUGUGGUUGGGUGGA | 0.711

Series 2 — technique: protein-binding microarray; molecule type: double-stranded DNA, one strand shown; matrix: in vitro; tested at: 250 nM; notes: 60-bp whole probe; with: salmon DNA 0.4 mg/ml; reference: random background probes; reading: higher = stronger binding; constant ends, left off below: GCCTAGCAC … GTCTTGATTCGCTTGACGCTGCTG
Target: Interferon regulatory factor 5, full length, phosphomimetic (IRF5, Homo sapiens, UniProt Q13568-2, residues 1-514, K96S/S451D/S453D/S456D/S462D)
Sequence | log fluorescence [z-score]
GACGGACTGGGGTTTCGGGACGTGCTA | 1.21
GACGGTATCGAAACTGGGGACGTGCTA | 6.45
TTATATATCAGTTTCGATTAGTGCTAG | 9.8
GACGATTTCAGACTGAAGACGTGCTAG | 0.072
AGGAATTTCCCACTTTCACTGTGCTAG | 4.28
TTAGATTCCCTTTTCCTTTAGTGCTAG | 0.865
GTCGGTTTCCTTCTCCTGACGTGCTAG | 1.47
TTAGATTTTAGACTGGATTAGTGCTAG | 0.113
GACGGACTGCTACTTCTGACGTGCTAG | -0.418
TTAGGTTTCCTTATCCTATAGTGCTAG | 0.955
GACGGTATCTTTATCCTGACGTGCTAG | 0.311
TTAGATATCGGGTATAGATTAGTGCTA | 2.52
TTAGGTCACGGTATCGGTTAGTGCTAG | 3.47
TTAGAACTGACTATCGATTAGTGCTAG | 7.36
GACGGTTGCCTTTCCCTGACGTGCTAG | 0.139
ATAGGTCTCCTACTGCTTTAGTGCTAG | 0.0208
CCATTTTTCTAGTCCAGACTGTGCTAG | 0.668
GGCGGTTTCCTTATCCTGACGTGCTAG | 0.489
CTGGATCTCAGACTGTGTCCGTGCTAG | -0.25

Series 3 — technique: universal PBM; molecule type: double-stranded DNA, one strand shown; matrix: in vitro; tested at: 600 nM; reading: higher = stronger binding
Target: Sal-like protein 4, full length isoform A (SALL4, Homo sapiens, UniProt Q9UJQ4, residues 1-1053)
Sequence of UniProt Q9UJQ4 (whole entry, looked up): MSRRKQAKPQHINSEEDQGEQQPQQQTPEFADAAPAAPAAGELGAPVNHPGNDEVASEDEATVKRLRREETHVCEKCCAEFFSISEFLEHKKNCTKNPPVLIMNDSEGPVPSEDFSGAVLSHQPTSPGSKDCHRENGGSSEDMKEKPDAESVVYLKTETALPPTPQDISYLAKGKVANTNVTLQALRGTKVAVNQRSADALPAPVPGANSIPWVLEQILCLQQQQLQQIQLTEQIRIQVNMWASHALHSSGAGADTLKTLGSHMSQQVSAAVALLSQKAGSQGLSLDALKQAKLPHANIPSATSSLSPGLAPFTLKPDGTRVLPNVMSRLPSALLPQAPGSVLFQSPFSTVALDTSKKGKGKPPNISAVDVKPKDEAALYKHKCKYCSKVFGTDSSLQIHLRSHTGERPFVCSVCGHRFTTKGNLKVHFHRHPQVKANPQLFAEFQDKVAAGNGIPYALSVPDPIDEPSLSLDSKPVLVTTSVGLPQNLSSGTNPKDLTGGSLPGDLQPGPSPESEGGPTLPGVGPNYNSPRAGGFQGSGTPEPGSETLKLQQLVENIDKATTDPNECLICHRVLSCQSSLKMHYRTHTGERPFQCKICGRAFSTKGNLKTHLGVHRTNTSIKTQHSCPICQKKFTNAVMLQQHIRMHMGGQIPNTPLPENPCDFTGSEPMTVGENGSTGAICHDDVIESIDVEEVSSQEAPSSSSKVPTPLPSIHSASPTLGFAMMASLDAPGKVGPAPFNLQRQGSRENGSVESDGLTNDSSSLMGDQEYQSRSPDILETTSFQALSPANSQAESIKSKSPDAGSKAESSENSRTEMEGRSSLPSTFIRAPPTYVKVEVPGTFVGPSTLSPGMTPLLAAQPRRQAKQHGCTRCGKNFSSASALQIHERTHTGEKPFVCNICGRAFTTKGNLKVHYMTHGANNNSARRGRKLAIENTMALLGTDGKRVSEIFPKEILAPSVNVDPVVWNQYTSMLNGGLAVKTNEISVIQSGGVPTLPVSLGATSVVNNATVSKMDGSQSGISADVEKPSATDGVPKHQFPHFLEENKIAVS
Notes: 8-mer, flanks averaged, mean of replicates
Sequence | E-score
AGAGGCGC | -0.296
CACACGGC | -0.225
AACAACTG | 0.161
AGGGTTAC | -0.173
CAAGACGG | -0.182
GGAGGCAA | -0.259
GTAGTGGA | 0.0694
CGCTAGTC | -0.227
CGATCTAA | 0.0294
ACGCCGAA | -0.195
GGGTCGCA | -0.0899
AAAATTGG | 0.196
TCACGAAA | 0.192
GACTCGAC | -0.09
ATGAGAGC | -0.0119
ATATGCAG | 0.174
AGAAGATG | 0.104
CGCATGCG | -0.257
CATTGGGG | -0.129
AACCAACA | 0.0993
CAGTACAG | 0.0447
AGAGATCT | 0.0177
GTATCCAC | -0.0951
CGAATTCC | -0.0536
TAATACCA | 0.213

Series 4 — technique: RNA Bind-n-Seq; molecule type: RNA; matrix: in vitro; tested at: 1 µM; notes: whole 134-nt RNA, ends assumed; with: 150 mM KCl; reference: input library; reading: higher = stronger binding
Target: Ras GTPase-activating protein-binding protein 1, RRM domain (G3BP1, Homo sapiens, UniProt Q13283)
Sequence of UniProt Q13283 (whole entry, looked up): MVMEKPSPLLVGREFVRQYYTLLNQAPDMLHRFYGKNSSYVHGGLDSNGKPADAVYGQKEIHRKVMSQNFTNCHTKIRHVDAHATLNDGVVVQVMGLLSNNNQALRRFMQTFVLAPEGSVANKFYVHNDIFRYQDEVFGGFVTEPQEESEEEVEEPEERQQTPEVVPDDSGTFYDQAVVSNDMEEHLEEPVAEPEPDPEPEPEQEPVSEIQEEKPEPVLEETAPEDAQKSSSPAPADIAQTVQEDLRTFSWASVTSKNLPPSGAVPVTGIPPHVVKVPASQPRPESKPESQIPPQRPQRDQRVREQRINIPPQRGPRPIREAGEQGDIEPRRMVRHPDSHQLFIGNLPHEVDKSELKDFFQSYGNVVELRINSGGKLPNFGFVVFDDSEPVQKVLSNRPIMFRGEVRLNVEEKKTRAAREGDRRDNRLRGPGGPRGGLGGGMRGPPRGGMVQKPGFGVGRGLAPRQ
Constant ends, left off below: GGGAGUUCUACAGUCCGACGAUC … UGGAAUUCUCGGGUGUCAAGG
Sequence | log2 enrichment
UCAAGUCCUGUGCUACACAUCGUAUGUACCGAAUCGGGGUUGGGGUUGGGUUGGAAAGUAUUAUGUUACGCCGUUCGGAUCUGCACUUCC | -0.147
UGGGAGGUGGAUUUUGUUUAUUUUUUUAGCUCAUUUCCAGGGGUGGGAAUUUUUUUUUAAUAUGUGUCAUGAAUAAAGUUGUUUUUGAUA | 1.16
UAACUUUAGAGGAGGAUCUGAUGGAUAUGGCAGUGGACGUGGAUUUGGGGAUGGCUAUAAUGGGUAUGGAGGAGGAACUGGAGGUGGCAA | -0.567
UGGGAGGUGGAUUUUGUUUAUUUUUUUAGCACAUUUCCAGGGGUGGGAAUUUUUUUUUAAUAUGUGUCAUGAAUAAAGUUGUUUUUGAAA | 1.89
CUUUGGUUGACAGGAAGUUCCUUUUCCAGGCAGGUCCCGUUGCCACCUCCUGCUCACUCAGUCCCGGGCUCUGCCGAGUGGUCCUGGGAA | -0.103
UCAAGUCCUGUGCUACACAUCGUAUGUACCGAAUCGGGGUUUGGUUUGGGUUUGGAAAGUAUUAUGUUACGCCGUUCGGAUCUGCACUUC | -0.349
AAGUCCUGUGCUACACAUCGUAUGUACCGAAUCGGAAAAAGGAAAAAGGUUUUUGGAAAGUAUUAUGUUACGCCGUUCGGAUCUGCACUU | -0.159
UUGUGAUUAAGAUUUGUUCUUUUUCUCCCCUCUCUAUAGGAAGAUGAUCCCUAUGAUCUUGAAGAUGUUUCUGCACAGAAAUGAGGGAAA | -0.134
UGUCUCGAGCAGGGGACAAGACGUUCGAGGAGUACCUGGAUGAGUAUUACCGGCUGGACUACGAGGACAUCAUCGACGACCUGCCCUGUC | -0.28

A few entries again (series 2):
Sequence | log fluorescence [z-score]
GACGGACTGGGGTTTCGGGACGTGCTA | 1.21
GACGGTATCGAAACTGGGGACGTGCTA | 6.45
TTATATATCAGTTTCGATTAGTGCTAG | 9.8
GACGATTTCAGACTGAAGACGTGCTAG | 0.072
